# Published values gathered from unrelated publications.
# Lines come from different studies, so protocols differ. Values joined by “and” are separate records of one study, mostly repeats; a detail may differ. ± marks the error that the study gave.
# Chain of UniProt P10635 (whole entry, looked up): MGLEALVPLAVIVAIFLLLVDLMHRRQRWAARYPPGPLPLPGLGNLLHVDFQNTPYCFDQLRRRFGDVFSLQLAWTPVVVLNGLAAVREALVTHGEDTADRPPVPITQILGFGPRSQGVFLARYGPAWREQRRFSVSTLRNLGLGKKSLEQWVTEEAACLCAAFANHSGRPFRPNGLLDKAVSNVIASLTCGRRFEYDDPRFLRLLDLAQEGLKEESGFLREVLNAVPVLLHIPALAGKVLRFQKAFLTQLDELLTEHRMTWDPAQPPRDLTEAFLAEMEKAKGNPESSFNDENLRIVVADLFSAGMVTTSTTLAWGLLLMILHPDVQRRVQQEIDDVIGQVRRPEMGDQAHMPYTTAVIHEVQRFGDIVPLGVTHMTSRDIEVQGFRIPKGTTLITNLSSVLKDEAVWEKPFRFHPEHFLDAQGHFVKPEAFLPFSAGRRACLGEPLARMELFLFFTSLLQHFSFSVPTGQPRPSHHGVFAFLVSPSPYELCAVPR
# Chain of UniProt Q9HCG7 (whole entry, looked up): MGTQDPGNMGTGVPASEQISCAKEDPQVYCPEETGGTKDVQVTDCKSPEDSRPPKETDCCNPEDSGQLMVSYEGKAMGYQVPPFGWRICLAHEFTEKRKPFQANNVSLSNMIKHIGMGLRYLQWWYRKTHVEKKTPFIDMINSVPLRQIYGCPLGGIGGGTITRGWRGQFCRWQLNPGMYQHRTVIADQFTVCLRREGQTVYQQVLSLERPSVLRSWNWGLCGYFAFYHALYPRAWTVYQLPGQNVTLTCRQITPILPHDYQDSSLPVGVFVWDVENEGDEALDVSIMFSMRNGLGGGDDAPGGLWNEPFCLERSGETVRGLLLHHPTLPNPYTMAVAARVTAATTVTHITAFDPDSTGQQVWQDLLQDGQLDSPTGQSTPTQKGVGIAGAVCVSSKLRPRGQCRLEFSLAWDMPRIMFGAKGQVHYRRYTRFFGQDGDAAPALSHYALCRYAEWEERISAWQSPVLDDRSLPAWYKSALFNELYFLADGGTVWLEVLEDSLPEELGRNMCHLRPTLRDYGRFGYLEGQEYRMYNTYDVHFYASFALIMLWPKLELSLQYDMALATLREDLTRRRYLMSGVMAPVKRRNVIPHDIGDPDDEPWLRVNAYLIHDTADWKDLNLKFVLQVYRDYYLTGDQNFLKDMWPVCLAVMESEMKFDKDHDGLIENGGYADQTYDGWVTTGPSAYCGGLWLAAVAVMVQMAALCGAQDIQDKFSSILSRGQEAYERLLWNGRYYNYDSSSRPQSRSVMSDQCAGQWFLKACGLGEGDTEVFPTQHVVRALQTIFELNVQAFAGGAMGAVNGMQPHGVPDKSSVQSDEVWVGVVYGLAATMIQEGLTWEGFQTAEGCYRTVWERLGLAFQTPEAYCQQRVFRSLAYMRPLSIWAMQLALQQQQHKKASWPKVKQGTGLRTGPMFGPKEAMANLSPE
SMILES,target or system,assay,test system,setting,scale,endpoint,result
COc1ccc2c(c1)c(CC(=O)[Se]CC(=O)Nc1cccc(C(F)(F)F)c1)c(C)n2C(=O)c1ccc(Cl)cc1,NCI60 colon subpanel,NCI60 five-dose screen,,,,GI50,5650 nM
CC(C)(C)n1cc(CN(Cc2cn(CC(=O)O)nn2)Cc2cn(C(C)(C)C)nn2)nn1,"OVCAR-5, HPG-labelled","live-cell CuAAC reaction, LC-ESI-MS/MS",cytosolic proteins,"concentration not given, with: NEM 100 µM, 10 min pretreatment",,amount of CuAAC product,2.22 pg/µg protein and 2.28 pg/µg protein and 1.75 pg/µg protein
CN(C)CCN1CCN(c2ccc3nc(-c4ccc5nc(-c6ccc(C(F)(F)F)cc6)[nH]c5c4)[nH]c3c2)CC1,LOX IMVI,"cell growth, NCI-60 SRB",,"10 µM, 48 h",,growth percent,32.2%
CCCC[C@H](NC(=O)COCCOCCNC(=O)CN1CCN(CC(=O)O)CCN(CC(=O)O)CC1)C(=O)N[C@H]1CC(=O)NCCCC[C@@H](C(N)=O)NC(=O)[C@H](Cc2c[nH]c3ccccc23)NC(=O)[C@H](CCCNC(=N)N)NC(=O)[C@@H](Cc2ccccc2)NC(=O)[C@H](Cc2c[nH]cn2)NC1=O [technetium-99m labelled],,,"C57 mouse, tumor","intravenous, 0.037 MBq, 2 h",,tissue uptake,31.9 ± 2.57 %ID/g
O=C(C[Se]C(=O)c1cc2ccccc2[nH]1)Nc1cccc(C(F)(F)F)c1,NCI60 colon subpanel,NCI60 five-dose screen,,,,GI50,2550 nM
Cc1ncsc1-c1ccc(C(C)NC(=O)C2CC(O)CN2C(=O)C(NC(=O)CCCCCCCCCCN2CCCC(Nc3ncc(Cl)c(Nc4ccccc4S(=O)(=O)C(C)C)n3)C2)C(C)(C)C)cc1 (stereo not shown),22Rv1,"RNA-seq, item: TRIM66 mRNA",,concentration not given,baseline: DMSO,log2 fold change,-1.38
Nc1ncc(-c2cc(-c3cnn(CC(F)(F)F)c3)ncc2F)nc1C(=O)NC1CNCC(F)C1 (stereo not shown),GSK3A,KINOMEscan,,1 µM,baseline: DMSO control,remaining binding,67%
CNS(=O)(=O)Nc1nccc(Cc2c(C)c3ccc(Oc4ncccc4F)cc3oc2=O)c1F,T24,cell viability,,7 days,,IC50,> 1000 nM
COC(=O)c1cc(NC2=NC(=O)C(=Cc3ccc(C)cc3)S2)ccc1OC(C)=O,MCF7,"GC-MS, item: L-Methionine",,1 µM,baseline: DMSO,metabolite level,-0.52 fold change
COC(=O)[C@@]1(C)C=C(C(=O)Nc2cccc(C(=O)Nc3ccc(Nc4nccc(-c5cccnc5)n4)c(C)c3)c2)C(=O)CC1,SH-SY5Y MKK7 ACT,"c-Jun Ser73 phosphorylation, western blot",,"6 h, with: doxycycline",,EC50,~500 nM
CCOc1cncc(-c2ccc(NC(=O)C3(c4ccnc(NS(=O)(=O)C5CC5)n4)CCOCC3)nc2)n1,SN12C,"cell proliferation, CellTiter-Glo",,"72 h, renal cancer",,IC50,104 nM
COC(=O)c1cc(NC2=NC(=O)C(=Cc3ccc(N(C)C)cc3)S2)ccc1OC(C)=O,MCF7,"GC-MS, item: D-Mannose",,1 µM,baseline: DMSO,metabolite level,-0.58 fold change
CC(=O)Oc1ccccc1C(=O)[Se]CC(=O)Nc1cccc(C(F)(F)F)c1,NCI60 colon subpanel,cell growth,,"10 µM, 48 h, one-dose",,mean growth percent,-10.2%
CC(C)OCCOCc1ccc(OCC(O)CN(N=O)C(C)C)cc1 (stereo not shown),Salmonella typhimurium,Ames test,TA1535,"158 µg/plate, 30 % rat S9",baseline: solvent control,revertant fold increase,0.9 fold
COc1cc(/C=C/C(=O)/C=C(O)/C=C/c2ccc(OCC(=O)N3CCOCCOCCOCCOCCOCC3)c(OC)c2)ccc1OCC(=O)N1CCOCCOCCOCCOCCOCC1,SK-LU-1,"cell growth or viability, SRB",,25 µM,,inhibition,100%
CCCCCCc1cccc(C(O)CC(CO)NC(=O)CCCCCCCCCCNC(C)=O)c1 (stereo not shown),HeLa,"CERT activity, HPLC-MS/MS lipidomics, item: sphingomyelin 24",,"1 µM, 24 h, not cell-number normalised",,sphingomyelin level,42300 pmol/sample and 50300 pmol/sample and 48800 pmol/sample
CN1CCCNC(=O)c2cccc(c2)C(=O)NCCCN(C)CCCNc2cccc3c2C(=O)c2cccc(c2C3=O)NCCC1,SAS,"RNA-Seq, item: RBM12 mRNA",,"1 µM, 6 h",baseline: untreated cells,log2 fold change,-0.966
O=C(O)C1OC(Oc2c(-c3ccc(O)cc3)oc3ccc(O)cc3c2=O)C(O)C(O)C1O (stereo not shown),MDCKII-UGT1A1/MRP2 cells,"glucuronide efflux, substrate",,,,Jmax,8.2 ± 0.37 pmol/mg/min
COc1cccc(OC)c1-c1cc(C(=O)NC2(C(=O)O)C3CC4CC(C3)CC2C4)nn1-c1ccc(C(=O)N(C)CCCN(C)C(=O)[C@H](CCCCNC(=O)[C@H](CC(C)C)NC(=O)C2OC2C(=O)O)NC(=O)CN2CCN(CC(=O)[O-])CCN(CC(=O)[O-])CCN(CC(=O)[O-])CC2)cc1C(C)C.[177Lu+3] (mixture of isomers),HT-29,,,"concentration not given, 30 min",baseline: added activity,surface-bound fraction,2.17 ± 0.09%
NC(Cc1ccccc1)C(=O)N1CC(=Cc2ccc(Cl)c(Cl)c2)C(=O)C(=Cc2ccc(Cl)c(Cl)c2)C1 (stereo not shown),BRD4-HiBiT cells,"BRD4 degradation rescue, inhibitor",,"8 h, with: dBET6 500 nM",,EC50,1510 nM
CNC(=O)C1CCCN(C(=O)C2CC3CCC2N3C(=O)[C@@H]2C[C@@H](O)CN2C(=O)NCc2cccc(Cl)c2F)C1 (mixture of isomers),"Cytochrome P450 2D6 (CYP2D6, Homo sapiens, UniProt P10635)","enzyme activity, inhibitor, time-dependent inhibition",,"1.85 µM, preincubated with NADPH",baseline: negative control,remaining activity,119%
O=C1NC2(CC2)COc2ncc(F)cc2[C@H]2COCCN2c2ccn3ncc1c3n2,Salmonella typhimurium,Ames test,TA100,"150 µg/plate, 48 h, with: without S9",,revertant colonies,81 ± 5 revertants/plate
Cc1cc(C)nc(NC(=S)N2CCN(Cc3ccc(C(F)(F)F)cc3)CC2)c1,MDA-MB-468,isotope labelling,,"10 µM, 24 h, with: U-13C-serine",,M+1 dTMP pool,decreased
O=C(O)C1OC(Oc2cccc(-c3oc4ccccc4c(=O)c3O)c2)C(O)C(O)C1O (stereo not shown),MDCKII-UGT1A1/MRP2 cells,"glucuronide efflux, substrate",,,,Jmax,24 ± 9.7 pmol/mg/min
CCCC[C@H](NC(=O)CCCCCCCNC(=O)CN1CCN(CC(=O)O)CCN(CC(=O)O)CC1)C(=O)N[C@H]1CC(=O)NCCCC[C@@H](C(N)=O)NC(=O)[C@H](Cc2c[nH]c3ccccc23)NC(=O)[C@H](CCCNC(=N)N)NC(=O)[C@@H](Cc2ccccc2)NC(=O)[C@H](Cc2c[nH]cn2)NC1=O [technetium-99m labelled],,,"C57 mouse, heart","intravenous, 0.037 MBq, 2 h",,tissue uptake,0.09 ± 0.03 %ID/g
Cc1c(Cl)cccc1Nc1ccccc1C(=O)[Se]CC(=O)Nc1cccc(C(F)(F)F)c1,NCI60 colon subpanel,cell growth,,"10 µM, 48 h, one-dose",,mean growth percent,-27.4%
C#CCCCC(O)/C=C/C(=O)NC1(c2ccc(-c3nc4ccn5c(=O)[nH]nc5c4cc3-c3ccccc3)cc2)CCC1 (stereo not shown),MDA-MB-468,"flow cytometry, PI staining",,"EC60 concentration, 72 h, DMSO 39.2",,cells in G0/G1 phase,43.7%
COc1cc([C@@H]2O[C@@H](c3cc(OC)c(O[C@@H]4O[C@H](CO)[C@@H](O)[C@H](O)[C@H]4O)c(OC)c3)[C@H](CO)[C@H]2CO)cc(OC)c1O,3T3-L1 pre-adipocytes,,,"5 to 20 µM, 48 h",,intracellular triglyceride level,decreased
Cn1ncc(-c2ccc3c(=O)[nH]nc(CN)c3c2)c1-c1c(F)c(Cl)cc(OC2CC2)c1C#N,HOS,"cell viability, inhibitor, CellTiter-Glo",,"120 h, baseline-subtracted",,IC50,200 nM
CC(C)=CCC/C(C)=C/CC/C(C)=C/COCCCCCN1C[C@H](O)[C@@H](O)[C@H](O)[C@@H]1CO,"Beta-glucosidase (GBA2, Homo sapiens, UniProt Q9HCG7)","inhibitor, 4MU-β-D-glucopyranoside",HEK293T homogenates overexpressing GBA2,,baseline: GBA1 IC50 over GBA2 IC50,selectivity ratio,500
CCN(CC)CC#CCNc1ccnc2cc(Cl)ccc12,Salmonella typhimurium,mini-Ames test,TA100,"1000.0 µg/well, with: rat liver S9",,revertant count,10 revertants/well
CNC(=O)CCN(Cc1ccc(C(F)F)cc1)C(=O)c1cc2c(OC)ccc(-c3ccc(=O)n(C)c3)c2s1,murine AML cells,"BRD4 chromatin occupancy, ChIP-seq, item: BRD4 at Ift57 locus",,"concentration not given, chr16:49768114-49777591","baseline: DMSO, higher = more occupancy",BRD4 ChIP-seq tag count,62.9 a.u.
C=C(NC(=O)c1csc(-c2nc3c(cc2O)-c2nc(cs2)C(=O)NC(C(C)O)C(=O)NC(=C(C)OC)c2nc(cs2)C(=O)NC2c4nc(cs4)C(=O)NC(COC(=O)c4c5c6c(cccc6n4O)COC(=O)C(OC4CC(C)(O)C(N(C)C)C(C)O4)C2OC5)c2nc-3cs2)n1)C(N)=O (stereo not shown),,,"Sprague-Dawley rat, male, plasma","intravenous infusion, 6 mg/kg, multiple doses, day 1",,Cmax,3390 ng/mL
O=C1Nc2ccccc2C1(c1c[nH]c2ccccc12)c1c[nH]c2ccccc12,human monocytes,,,5 µM,baseline: DMSO,IL-6 induction,increased
CC(C)n1nc(C(F)F)cc1C(=O)Nc1ccc([C@H]2[C@@H](O)CCCc3cncn32)c(-c2ccccc2)c1,BRD4-HiBiT cells,"BRD4 degradation rescue, inhibitor",,"8 h, 50% degradation rescued, with: dBET6 500 nM",,EC50,98.8 nM
Cn1ncc2cc(-c3cncc(Cl)c3N3CCC4(CCNC4=O)CC3)ccc21,LS174T,"gene expression, microarray, item: DRD2 mRNA",,"concentration not given, 24 h",baseline: untreated cells,log2 fold change,4.07
Cc1ccc(-n2cc(CSc3nc4ccccc4n3Cc3cn(-c4ccc(C)cc4)nn3)nn2)cc1,Caco-2,MTT,,31.3 ppm,,cytotoxicity,77.5%
CCN(CC)CC(=O)Nc1cccc(-n2cc(-c3ccc4ccc(-c5cn(-c6cccc(NC(=O)CN(CC)CC)c6)nn5)cc4c3)nn2)c1,RCC4,"PCR angiogenesis array, item: TIE1",,"5 x IC50, 2 h, normoxia",baseline: untreated,fold regulation,-1.09 fold
CCN(C(=O)c1cc(F)ccc1Oc1nncnc1N1CCC2(C1)CN([C@H](CCCN(C)CCOC)C(C)C)C2)C(C)C,SAOS-2,cell growth or viability,,7 days,,GI50,> 10000 nM
C1=[N+]2CCCC[N+]3=Cc4ccc5[n]4[Au-]23[n]2c1ccc2-c1nc2ccccc2nc1-5.F[P-](F)(F)(F)(F)F,UO-31,NCI60 five-dose screen,,,,TGI,4 -log M
Cc1cc(Cl)cc(-c2ccnc3cc(CN4C(=O)C5C(C4=O)C5(C)C)sc23)c1C[C@@H]1CNCCO1 (stereo partly shown),CHP-212 parental,PI flow cytometry,,"0.1 µM, 24 h",,G1 phase cells,61.1%
C=CC(=O)Nc1cccc(Cn2ncc3cnc(Nc4cnn(CCOC)c4)nc32)c1,MST2 human,"binding, KINOMEscan",,100 nM,lower = stronger binding,percent of control,82%
CSC(=S)N/N=C(\C)c1ccc(Nc2nnc(-c3ccc(Cl)cc3)c3ccccc23)cc1,MCF7,"cell growth or viability, MTT",,"10 µM, 24 h",,viability,7.17%
Cc1nn(-c2cccc(N)c2)c(=O)c2cnc(Nc3ccc(N4CCNCC4)cc3)nc12,"MAP2K1 (Homo sapiens, UniProt Q02750)",SelectScreen kinase,,,,IC50,> 10000 nM
CC(C)c1ccc(N(C)c2ccc3c(c2)OCC[C@H]3CNc2cnccc2C(=O)O)cc1,KNS-62,"cell growth or viability, ATP luminescence",,7 days,,IC50,14.9 nM
COC1CN([C@H]2CC[C@H]([C@@]3(C)Oc4c(Cl)cc(C(=O)NCc5c(SC)cc(C)[nH]c5=O)c(C)c4O3)CC2)C1,,"RNA-seq, item: CLDN4 mouse homolog","mouse, HT-1376 xenograft, whole blood",dose not given,baseline: vehicle,log2 fold change,1.44

# Some of these lines once more:
SMILES,target or system,assay,test system,setting,scale,endpoint,result
COC(=O)c1cc(NC2=NC(=O)C(=Cc3ccc(C)cc3)S2)ccc1OC(C)=O,MCF7,"GC-MS, item: L-Methionine",,1 µM,baseline: DMSO,metabolite level,-0.52 fold change
COC(=O)c1cc(NC2=NC(=O)C(=Cc3ccc(N(C)C)cc3)S2)ccc1OC(C)=O,MCF7,"GC-MS, item: D-Mannose",,1 µM,baseline: DMSO,metabolite level,-0.58 fold change
CCOc1cncc(-c2ccc(NC(=O)C3(c4ccnc(NS(=O)(=O)C5CC5)n4)CCOCC3)nc2)n1,SN12C,"cell proliferation, CellTiter-Glo",,"72 h, renal cancer",,IC50,104 nM
CC(C)(C)n1cc(CN(Cc2cn(CC(=O)O)nn2)Cc2cn(C(C)(C)C)nn2)nn1,"OVCAR-5, HPG-labelled","live-cell CuAAC reaction, LC-ESI-MS/MS",cytosolic proteins,"concentration not given, with: NEM 100 µM, 10 min pretreatment",,amount of CuAAC product,2.22 pg/µg protein and 2.28 pg/µg protein and 1.75 pg/µg protein
CNC(=O)CCN(Cc1ccc(C(F)F)cc1)C(=O)c1cc2c(OC)ccc(-c3ccc(=O)n(C)c3)c2s1,murine AML cells,"BRD4 chromatin occupancy, ChIP-seq, item: BRD4 at Ift57 locus",,"concentration not given, chr16:49768114-49777591","baseline: DMSO, higher = more occupancy",BRD4 ChIP-seq tag count,62.9 a.u.
C=C(NC(=O)c1csc(-c2nc3c(cc2O)-c2nc(cs2)C(=O)NC(C(C)O)C(=O)NC(=C(C)OC)c2nc(cs2)C(=O)NC2c4nc(cs4)C(=O)NC(COC(=O)c4c5c6c(cccc6n4O)COC(=O)C(OC4CC(C)(O)C(N(C)C)C(C)O4)C2OC5)c2nc-3cs2)n1)C(N)=O (stereo not shown),,,"Sprague-Dawley rat, male, plasma","intravenous infusion, 6 mg/kg, multiple doses, day 1",,Cmax,3390 ng/mL
